{"data": "Experimental data pooled from the literature", "note": "A part holds a random share of what one study measured. Substitutions count along the parent as printed.", "sequence of UniProt P41143 (whole entry, looked up)": "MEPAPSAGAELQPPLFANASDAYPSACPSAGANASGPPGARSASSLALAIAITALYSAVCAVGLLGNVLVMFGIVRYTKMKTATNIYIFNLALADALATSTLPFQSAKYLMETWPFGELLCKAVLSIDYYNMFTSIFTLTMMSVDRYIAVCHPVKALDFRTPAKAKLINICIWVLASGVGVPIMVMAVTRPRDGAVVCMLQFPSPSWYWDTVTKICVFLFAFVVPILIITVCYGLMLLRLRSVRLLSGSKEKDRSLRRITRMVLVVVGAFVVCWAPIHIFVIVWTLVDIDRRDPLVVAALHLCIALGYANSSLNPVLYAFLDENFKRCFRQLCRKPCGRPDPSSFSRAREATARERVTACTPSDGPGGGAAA"}
{"data": "Sample 1", "target": "CCND2, cyclin fold, Cln2 fusion (human)", "technique": "yeast growth competition, sequencing", "matrix": "yeast", "setting": "strong parent motif", "relative to": "not given", "direction": "higher = stronger binding", "starting sequence": "viral docking peptide; YKVKRRLVFGADD"}
{"Variant": "L7R", "normalised enrichment score": 0.554}
{"Variant": "V3F", "normalised enrichment score": 0.554}
{"Variant": "K2E", "normalised enrichment score": 1.43}
{"Variant": "A11K", "normalised enrichment score": 1.15}
{"Variant": "D12H", "normalised enrichment score": 0.804}
{"Variant": "L7A", "normalised enrichment score": -0.0845}
{"Variant": "R5E", "normalised enrichment score": 0.284}
{"Variant": "R5W", "normalised enrichment score": -0.161}
{"data": "Sample 2", "target": "HLA class I histocompatibility antigen, A alpha chain, allele A*80:01 (Homo sapiens, UniProt P04439)", "effect on": "peptide-MHC binding", "molecule type": "peptide", "tested at": "concentration not given"}
{"Sequence": "ERWFVRNPF", "binding": "inactive"}
{"Sequence": "TTFPVNGGY", "binding": "inactive"}
{"Sequence": "VRGGMVAPL", "binding": "inactive"}
{"Sequence": "STTTCEAGV", "binding": "inactive"}
{"Sequence": "HSGFIYFGK", "binding": "inactive"}
{"Sequence": "NPLEIYQEI", "binding": "inactive"}
{"Sequence": "EASTWLDIF", "binding": "inactive"}
{"Sequence": "RADEINAIL", "binding": "inactive"}
{"data": "Further values, each from its own experiment"}
{"SMILES": "CNCc1ccccc1-c1csc([C@H](C)Nc2nc(C)nc3cc(OC)c(OC)cc23)c1", "tested on": "OPRD1 (Homo sapiens, UniProt P41143)", "assay": "binding, radioligand binding", "conditions": "10 µM", "measurement": "inhibition", "result": "10.5%"}
{"SMILES": "C[C@@H](O[C@H]1OCCN(Cc2n[nH]c(=O)[nH]2)[C@H]1c1ccc(F)cc1)c1cc(C(F)(F)F)cc(C(F)(F)F)c1", "tested on": "HEK-293T/ACE2", "assay": "Hoechst nuclei count", "conditions": "concentration not given, 16 (unit not given)", "scale": "relative to: vehicle", "measurement": "viability", "result": "96.1%"}
{"note": "For quick reference, copied from above (sample 2):"}
{"Sequence": "VRGGMVAPL", "binding": "inactive"}
{"Sequence": "STTTCEAGV", "binding": "inactive"}
